Assay results from different studies.
Lines come from different studies, so protocols differ.
Sequence of UniProt P37231 (whole entry, looked up): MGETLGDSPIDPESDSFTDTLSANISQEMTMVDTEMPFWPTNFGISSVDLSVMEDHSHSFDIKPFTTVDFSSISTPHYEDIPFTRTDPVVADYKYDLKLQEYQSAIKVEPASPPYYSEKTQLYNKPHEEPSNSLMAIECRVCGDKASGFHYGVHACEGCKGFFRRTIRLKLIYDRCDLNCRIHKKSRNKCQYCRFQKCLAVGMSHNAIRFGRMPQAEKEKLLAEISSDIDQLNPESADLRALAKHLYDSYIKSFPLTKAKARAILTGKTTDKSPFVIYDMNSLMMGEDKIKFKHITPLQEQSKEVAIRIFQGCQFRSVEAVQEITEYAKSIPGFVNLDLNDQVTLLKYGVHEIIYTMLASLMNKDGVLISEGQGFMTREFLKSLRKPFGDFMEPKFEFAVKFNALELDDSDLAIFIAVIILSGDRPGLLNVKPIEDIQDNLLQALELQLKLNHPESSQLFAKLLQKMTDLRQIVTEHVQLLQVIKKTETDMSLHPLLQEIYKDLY

SMILES = N=C(NCC[C@H](NC(=O)c1noc(-c2cc(F)ccc2F)n1)c1nc2ccccc2[nH]1)c1ccc([N+](=O)[O-])o1; tested on = STING pathway; test = inhibitor, ELISA; test system = mouse iBMDM; setting = concentration not given, 24 h, with: diABZI 500 nM; endpoint = IFNβ secretion; value = inhibited
SMILES = Cc1c(Cc2cccc(OC(C)C(=O)O)c2)c2ccc(C(=O)N[C@@H](C)c3ccc(C(F)(F)F)cc3)cc2n1C (some centres unmarked); tested on = Peroxisome proliferator-activated receptor gamma, ligand-binding domain (PPARG, Homo sapiens, UniProt P37231); test = reporter gene, luciferase reporter; test system = HEK293T, Gal4-PPARγ LBD; endpoint = IC50; value = 3380 nM
SMILES = C=CC(=O)Nc1cccc(Cn2ncc3cnc(Nc4cnn(CCOC)c4)nc32)c1; tested on = CIT human; test = binding, KINOMEscan; setting = 100 nM; how to read = lower = stronger binding; endpoint = percent of control; value = 80%
SMILES = c1ccc(-c2n[nH]cc2-c2ccnc3ccccc23)nc1; tested on = TPK1 (Candida albicans); test = kinase binding, MIB/MS competition; test system = Candida albicans lysate; setting = 1 µM; how to read = reference: DMSO; endpoint = log2 fold change; value = -0.13
SMILES = Cc1c(C)c2cccnc2c2ncccc12.O=[N+]([O-])[O-].O=c1c(C=NN=C([S-])Nc2ccccc2)coc2ccccc12.[Cu+2]; tested on = supercoiled pUC19 DNA; test = oxidative DNA cleavage; setting = concentration not given, DMSO 10%, with: ascorbic acid; endpoint = supercoiled DNA remaining; value = 0%
SMILES = COC1CN([C@H]2CC[C@H]([C@@]3(C)Oc4c(Cl)cc(C(=O)NCc5c(SC)cc(C)[nH]c5=O)c(C)c4O3)CC2)C1; test = RNA-seq, refers to: BEND7; test system = human, whole blood; setting = dose not given, 24 h; how to read = reference: pretreatment baseline; endpoint = log2 fold change; value = 7.69
SMILES = C=CC(=O)N1[C@@H](c2ccc3c(c2)OCO3)c2[nH]c3ccccc3c2C[C@H]1C(=O)N1CCN(C)CC1; tested on = human cyclin E1 wild type-3xFLAG:CDK2; test = co-IP with TMT proteomics, refers to: RPSA; setting = concentration not given, P08865; how to read = reference: wild type DMSO; endpoint = relative co-enrichment; value = 97%
SMILES = Cc1c(Cc2cccc(OC(C(=O)O)C3CC3)c2)c2ccc(C(=O)NC(C)c3cccc(C(C)(C)C)c3)cc2n1C (mixture of isomers); tested on = Peroxisome proliferator-activated receptor gamma (PPARG, Homo sapiens, UniProt P37231); test = ligand displacement, TR-FRET; endpoint = IC50; value = 118 nM
SMILES = Nc1ncc(-c2cc(-c3cnn(CC(F)(F)F)c3)ncc2F)nc1C(=O)NC1CNCC(F)C1 (centres unmarked); tested on = ABL2; test = KINOMEscan; setting = 1 µM; how to read = reference: DMSO control; endpoint = remaining binding; value = 82%
SMILES = CN(Cc1cc(C2CC2)on1)C(=O)c1cccc(-c2ccc3c(c2)CCO3)c1; tested on = acetyl-CoA synthetase 1 (Aspergillus fumigatus); test = enzyme activity, inhibitor, coupled pyrophosphate; setting = 25 µM; how to read = higher is more activity; endpoint = reaction rate; value = 0.00119 a.u.
SMILES = N=C(c1ccc([N+](=O)[O-])o1)N1CCC(NC(=O)c2cc(-c3ccc(F)cc3F)on2)(c2nc3ccccc3[nH]2)CC1; tested on = STING pathway; test = inhibitor; test system = human CD14+ monocytes; setting = 2.5 µM, with: diABZI; endpoint = IFNβ secretion; value = inhibited

Some of these lines once more:
SMILES = N=C(c1ccc([N+](=O)[O-])o1)N1CCC(NC(=O)c2cc(-c3ccc(F)cc3F)on2)(c2nc3ccccc3[nH]2)CC1; tested on = STING pathway; test = inhibitor; test system = human CD14+ monocytes; setting = 2.5 µM, with: diABZI; endpoint = IFNβ secretion; value = inhibited
